Measured values collected from several papers.
Compare with care: the assays were run in different laboratories.

Under “absorption lag time”, `CC(C)Nc1nc2cc(Cl)c(Cl)cc2n1[C@H]1O[C@@H](CO)[C@H](O)[C@@H]1O` is recorded as 0.212 h (population PK model; human; oral).
`NC1(C(=O)N[C@@H](CCO)c2ccc(Cl)cc2)CCN(c2nc[nH]c3nccc2-3)CC1`: “absorption lag time” 0.468 h (human; capsules).
For `NC(=O)c1cnc2[nH]ccc2c1N[C@@H]1[C@@H]2CC3C[C@H]1C[C@@](O)(C3)C2`, “absorption lag time” read 0.133 h (healthy human volunteers, plasma; oral, population PK model estimate).
For `CC[C@@H]1CN(C(=O)NCC(F)(F)F)C[C@@H]1c1cnc2cnc3[nH]ccc3n12`, “absorption lag time” read 0.2 h (population PK modelling; human; oral, immediate-release formulation, outliers excluded).
For `Cn1cnc2c(F)c(Nc3ccc(Br)cc3Cl)c(C(=O)NOCCO)cc21`, “absorption lag time” read 0.41 h (population PK model; human, plasma; oral, first-order absorption model, fasted).
Under “absorption lag time”, `NC(N)=NCCC[C@@H](N)C(=O)N[C@@H](CCCN=C(N)N)C(=O)N1CCC[C@H]1C(=O)N1C[C@H](O)C[C@H]1C(=O)NCC(=O)N[C@@H](Cc1cccs1)C(=O)N[C@@H](CO)C(=O)N1Cc2ccccc2C[C@@H]1C(=O)N1[C@H](C(=O)N[C@@H](CCCN=C(N)N)C(=O)O)C[C@@H]2CCCC[C@@H]21` is recorded as 0.0426 h (popPK full model estimate; human; subcutaneous).
`CCN1CCN(Cc2ccc(Nc3ncc(F)c(-c4cc(F)c5nc(C)n(C(C)C)c5c4)n3)nc2)CC1`: “absorption lag time” 1.71 h (population PK model; human, plasma; oral).
Under “absorption lag time”, `COc1cc(N2CCC3(CCN(C)CC3)CC2)ccc1Nc1ncc(Cl)c(Nc2ccccc2P(C)(C)=O)n1` is recorded as 0.473 h (population PK model; human fed; oral, final model without outliers).
